Assay results collected from several papers.
Each line is one published result; not all experiments were run side by side.
Target: Ribosomal protein S6 kinase beta-1 (RPS6KB1, Homo sapiens, UniProt P23443)
Chain of UniProt P23443 (whole entry, looked up): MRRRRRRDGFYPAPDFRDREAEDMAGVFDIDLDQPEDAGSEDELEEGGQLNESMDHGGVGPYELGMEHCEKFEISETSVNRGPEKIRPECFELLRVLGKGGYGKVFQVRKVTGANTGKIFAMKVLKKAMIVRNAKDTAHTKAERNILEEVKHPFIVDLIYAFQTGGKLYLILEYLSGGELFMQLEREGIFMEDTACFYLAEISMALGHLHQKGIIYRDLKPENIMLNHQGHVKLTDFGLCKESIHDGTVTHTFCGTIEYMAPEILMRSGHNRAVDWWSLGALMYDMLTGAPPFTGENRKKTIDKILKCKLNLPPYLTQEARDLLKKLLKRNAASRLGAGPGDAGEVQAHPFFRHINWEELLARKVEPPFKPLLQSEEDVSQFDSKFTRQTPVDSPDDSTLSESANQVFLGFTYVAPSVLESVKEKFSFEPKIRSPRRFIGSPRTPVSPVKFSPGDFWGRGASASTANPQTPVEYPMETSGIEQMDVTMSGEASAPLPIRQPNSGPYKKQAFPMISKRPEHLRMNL

SMILES	test	test system	setting	how to read	measurement	value
Nc1ncc(-c2cc(-c3cnn(CC(F)(F)F)c3)ncc2F)nc1C(=O)NC1CNCC(F)C1 (stereo not shown)	enzyme activity	–	1 µM	reference: DMSO control	remaining activity	94.6%
CC(C)=CC1OC(C)(C)C2C=C3C(=O)C(Cl)=CC(O)C3C3C(O)C4OC4C(=O)C132 (stereo not shown)	cell-free assay, competition with immobilised ligand	–	10 µM	–	remaining binding	77%
O=C(O)CCC(=O)c1cccc(NS(=O)(=O)c2c[nH]c3ncccc23)c1	kinase activity, radiometric	–	10 µM	–	remaining activity	99%
C=CC(=O)Nc1cccc(-c2cnc3[nH]cc(C(=O)NC(C)(C)C)c3n2)c1	enzyme activity, inhibitor	–	0.1 µM	–	inhibition	2%
Cc1ccc(C)c(-c2ccc3nc(NC(=O)C4CCCCC4)nn3c2)c1	enzyme activity, Dundee kinase panel	–	10 µM	–	remaining activity	105%
O=C(Cc1ccc(OCc2ccccc2)cc1)NC1(C(=O)O)CCN(C(=O)c2ccc(-c3cccc(Cl)c3)cc2)CC1	enzyme activity, inhibitor	–	10 µM	–	activity vs control	107%
CS(=O)(=O)Nc1cccc(-c2csc3cnc(Nc4ccc(N5CCN(CCCCCOc6cccc7c6C(=O)N(C6CCC(=O)NC6=O)C7=O)CC5)cc4)nc23)c1 (stereo not shown)	probe labelling, inhibitor, KiNativ chemoproteomics	MOLT-4	1 µM	–	inhibition	-23.6%
COc1ccc(O)cc1-c1c[nH]c2ncc(-c3cncc(C(=O)N(C)C)c3)cc12	binding, competition with immobilised ligand	–	0.2 µM	–	inhibition	0.12%
Nc1ncc2c(n1)-c1c([nH]c3ccc(C4=CCOCC4)cc13)CCC2	binding, competition with immobilised ligand	–	1 µM	–	remaining binding	100%
Cc1cccc(O[C@H]2CCC[C@@H](C(C)CNCc3ccncc3)C2)c1 (relative stereo)	enzyme activity, inhibitor	–	1 µM	–	inhibition	4%
Cc1[nH]nc2c1N=C(c1ccccc1Cl)c1cnc(N3CCOCC3)cc1N2	enzyme activity, inhibitor	–	0.5 µM	–	inhibition	28.1%
Cc1cccc(-c2ccc3nc(NC(=O)C4CCCO4)nn3c2)c1 (stereo not shown)	enzyme activity, Dundee kinase panel	–	10 µM	–	remaining activity	95%
COc1cc(Nc2nccc(-c3cnn4nc(OC)ccc34)n2)cc(C(F)(F)F)c1	binding, competition with immobilised ligand	–	1 µM	–	remaining binding	73%

Repeated from above:
SMILES	test	test system	setting	how to read	measurement	value
COc1ccc(O)cc1-c1c[nH]c2ncc(-c3cncc(C(=O)N(C)C)c3)cc12	binding, competition with immobilised ligand	–	0.2 µM	–	inhibition	0.12%
